Published values from different studies.
Parts stem from different laboratories: compare values within a part only. Changes are numbered by the printed parent chain.

Study 1 — technique: RNA Bind-n-Seq; molecule type: RNA; medium: in vitro; tested at: 1 µM; notes: whole 134-nt RNA, ends assumed; together with: 150 mM KCl; reference: input library; direction: higher = stronger binding
Target: Ras GTPase-activating protein-binding protein 1, RRM domain (G3BP1, Homo sapiens, UniProt Q13283)
UniProt Q13283, sequence (whole entry, looked up): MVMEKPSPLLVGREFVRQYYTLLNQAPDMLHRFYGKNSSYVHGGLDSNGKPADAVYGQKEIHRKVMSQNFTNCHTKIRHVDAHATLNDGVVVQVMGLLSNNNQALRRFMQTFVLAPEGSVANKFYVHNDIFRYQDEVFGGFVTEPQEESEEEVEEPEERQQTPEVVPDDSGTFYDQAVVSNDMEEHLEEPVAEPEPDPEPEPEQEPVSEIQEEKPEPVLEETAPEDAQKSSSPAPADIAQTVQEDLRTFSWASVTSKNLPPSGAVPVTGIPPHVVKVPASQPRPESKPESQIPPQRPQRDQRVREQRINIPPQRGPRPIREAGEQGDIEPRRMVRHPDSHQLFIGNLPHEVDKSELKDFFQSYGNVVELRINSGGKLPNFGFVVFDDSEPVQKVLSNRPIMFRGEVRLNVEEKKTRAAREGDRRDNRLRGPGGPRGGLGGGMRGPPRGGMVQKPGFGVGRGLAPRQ
The log2 enrichment of `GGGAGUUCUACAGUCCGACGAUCGUCCUGUGCUACACAUCGUAUGUACCGAAUCGGGGUUUUGGGGUUUUGGGGUUUUGGGAAAGUAUUAUGUUACGCCGUUCGGAUCUGCACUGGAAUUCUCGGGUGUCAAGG` is reported as 0.266.
With `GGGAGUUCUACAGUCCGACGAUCCACAGACAACACGCACCCACACAGACACAGAGGGAAGGGGUUGGGAUGGGGACAGAGUGCACAGCAGGGCGGGGUAGGACCCCAGCCCCUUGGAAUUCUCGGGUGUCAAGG` the log2 enrichment was 0.18.
`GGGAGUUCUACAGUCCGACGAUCAAGUCCUGUGCUACACAUCGUAUGUACCGAAUCGGCCCCGGGCCCCGGCCCCGGGGAAAGUAUUAUGUUACGCCGUUCGGAUCUGCACUUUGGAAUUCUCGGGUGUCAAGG` has a log2 enrichment of -0.674.
For `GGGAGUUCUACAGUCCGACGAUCGUCCUGUGCUACACAUCGUAUGUACCGAAUCGGAAAAAGGUUUUUUUGGAAAAAAAGGAAAGUAUUAUGUUACGCCGUUCGGAUCUGCACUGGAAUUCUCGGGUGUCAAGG`, the log2 enrichment was -0.246.
`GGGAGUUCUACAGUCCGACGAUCCUCAAGUCCUGUGCUACACAUCGUAUGUACCGAAUCGGAAAAAAAGGUGGAGGAAAGUAUUAUGUUACGCCGUUCGGAUCUGCACUUCCAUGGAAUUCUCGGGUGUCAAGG` gave a log2 enrichment of -0.155.
`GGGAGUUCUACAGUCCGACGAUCUGUUCACAUUUUAAGGAUGACAAGUCCACUAUAUGUAACACGUAAGAAUGCUAUCCUGGCAGUAGACACAGGGCCAGAAUAAACUGGCAAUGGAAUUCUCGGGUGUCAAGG` gave a log2 enrichment of -0.122.
`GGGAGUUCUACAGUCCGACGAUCCAAGUCCUGUGCUACACAUCGUAUGUACCGAAUCAAACCCAAACCCAAAUUUAAAAAAGUAUUAUGUUACGCCGUUCGGAUCUGCACUUCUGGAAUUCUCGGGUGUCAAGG` gave a log2 enrichment of -0.112.
`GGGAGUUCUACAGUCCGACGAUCUCCUGUGCUACACAUCGUAUGUACCGAAUCGGUUUUUUGGGUUUUUUGGGGUUUUUUGGGAAAGUAUUAUGUUACGCCGUUCGGAUCUGCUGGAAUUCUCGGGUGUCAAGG` has a log2 enrichment of -0.102.
`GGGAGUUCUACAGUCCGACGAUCAAGUCCUGUGCUACACAUCGUAUGUACCGAAUCGGGCCCCGGGCCCCGGGCCCCGGGAAAGUAUUAUGUUACGCCGUUCGGAUCUGCACUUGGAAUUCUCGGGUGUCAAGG` gave a log2 enrichment of -0.994.

Study 2 — technique: DHFR PCA, deep sequencing; medium: yeast; together with: (+)-ABA 0.0091 µM; reference: wild-type fitted maximum; direction: higher = stronger binding
Target: ABI1, truncated, D143A, DHFR fusion (Arabidopsis thaliana)
Notes: methotrexate growth selection, single substitutions
Starting sequence: PYL1, truncated, DHFR fusion (Arabidopsis thaliana); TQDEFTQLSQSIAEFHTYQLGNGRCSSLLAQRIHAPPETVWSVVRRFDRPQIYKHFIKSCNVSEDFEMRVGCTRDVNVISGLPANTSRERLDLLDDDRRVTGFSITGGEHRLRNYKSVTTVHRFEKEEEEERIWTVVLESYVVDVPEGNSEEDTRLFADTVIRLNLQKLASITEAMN; partner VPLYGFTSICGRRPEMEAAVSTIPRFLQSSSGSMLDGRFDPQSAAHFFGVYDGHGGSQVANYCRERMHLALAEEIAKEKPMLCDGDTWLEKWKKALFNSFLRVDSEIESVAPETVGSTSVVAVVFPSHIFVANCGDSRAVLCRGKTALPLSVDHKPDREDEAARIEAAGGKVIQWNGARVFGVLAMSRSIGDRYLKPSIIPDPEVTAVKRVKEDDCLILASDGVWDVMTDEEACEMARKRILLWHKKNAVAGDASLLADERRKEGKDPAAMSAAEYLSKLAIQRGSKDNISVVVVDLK
`F157G`: “relative binding score” -3.08%.
Under “relative binding score”, `W134V` is recorded as 18.6%.
`H34T`: “relative binding score” 5.16%.
`I133Y`: “relative binding score” 16.6%.
Under “relative binding score”, `G81E` is recorded as 7.83%.
`S104A`: “relative binding score” -1.52%.
Under “relative binding score”, `R88E` is recorded as 1.48%.
For `R49G`, “relative binding score” read -0.203%.
For `Y18K`, “relative binding score” read -3.01%.
Under “relative binding score”, `K126V` is recorded as 45.7%.
For `E89I`, “relative binding score” read 35.5%.

Study 3 — target: CCNB2, cyclin fold, Cln2 fusion (human); technique: yeast growth competition, sequencing; medium: yeast; notes: weak parent motif; reference: not given; direction: higher = stronger binding
Starting sequence: E2F1 docking peptide (human); PPVKRRLDLETDH
For `R6I`, “normalised enrichment score” read 0.246.
For `E10P`, “normalised enrichment score” read -0.0485.
For `P2Q`, “normalised enrichment score” read 0.141.
`D8E` — result for “normalised enrichment score”: 0.0529.
Under “normalised enrichment score”, `P2H` is recorded as 0.437.
`T11M` — result for “normalised enrichment score”: 0.4.
Under “normalised enrichment score”, `D8N` is recorded as 0.523.
Under “normalised enrichment score”, `R5A L7A` is recorded as -0.176.
Under “normalised enrichment score”, `L7M` is recorded as 0.162.
For `P2R`, “normalised enrichment score” read 0.0818.
`T11K`: “normalised enrichment score” 0.21.
`E10W` — result for “normalised enrichment score”: 0.575.
Under “normalised enrichment score”, `D12Y` is recorded as 1.02.
Under “normalised enrichment score”, `P1A` is recorded as 0.682.
`D8K` — result for “normalised enrichment score”: 0.403.
`E10N` — result for “normalised enrichment score”: 0.619.
Under “normalised enrichment score”, `R6K` is recorded as -0.0756.
For `P2D`, “normalised enrichment score” read 0.245.
`R5I`: “normalised enrichment score” -0.158.
`V3S`: “normalised enrichment score” 0.36.
For `K4Y`, “normalised enrichment score” read -0.379.
For `V3G`, “normalised enrichment score” read -0.198.
Under “normalised enrichment score”, `P2C` is recorded as 0.442.
Under “normalised enrichment score”, `P1K` is recorded as 0.642.
`R5N` — result for “normalised enrichment score”: 0.299.

Study 4 — technique: protein binding microarray; molecule type: double-stranded DNA, one strand shown; medium: in vitro; tested at: not given; reference: not given; direction: higher = stronger binding
Target: Histone acetyltransferase KAT6A, winged helix 2, GST fusion (KAT6A, Homo sapiens, UniProt Q92794, residues 85-181)
Notes: 8-mer, flanks averaged, mean of 2 arrays, mostly near background
Target sequence (chain): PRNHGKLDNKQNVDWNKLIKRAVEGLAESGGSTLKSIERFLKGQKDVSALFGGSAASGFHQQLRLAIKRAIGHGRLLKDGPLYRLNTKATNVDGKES
The E-score of `AATGTCGT` is reported as -0.0481.
For `GTGACTTA`, the E-score was -0.138.
The E-score of `GGTTGGGA` is reported as -0.0595.
For `AGGCGTCA`, the E-score was -0.0176.
The E-score of `ACTTTTCT` is reported as -0.172.
`GTAGTAGA` gave an E-score of 0.0377.
`GGCGTACC` has an E-score of 0.185.
With `AACGGGAG` the E-score was 0.0682.
The E-score of `AAACCTTC` is reported as -0.0307.
The E-score of `CCCCTAAA` is reported as -0.0584.
`GCAAAAGA` has an E-score of -0.0884.
For `AGGAGGAA`, the E-score was 0.0485.
For `ATGGTACA`, the E-score was -0.136.
`ATATAGGG` has an E-score of -0.136.
With `TCAACCGA` the E-score was 0.0904.
The E-score of `AGCCTGAC` is reported as -0.055.
For `GCTACAAA`, the E-score was 0.0795.
For `AGATTCCG`, the E-score was 0.0907.
`CACCAAGG` gave an E-score of -0.123.
With `CTATTTTC` the E-score was 0.0518.
`ATATCTTG` gave an E-score of 0.086.
`ACTGCTGA` has an E-score of -0.0226.
`CTGTTCAA` gave an E-score of -0.0157.
`ATGCCATC` gave an E-score of 0.0987.
For `GCCATGAA`, the E-score was 0.104.

Study 5 — technique: RNA Bind-n-Seq; molecule type: RNA; medium: in vitro; tested at: 100 nM; reference: input RNA pool; direction: higher = stronger binding
Target: RING finger protein unkempt homolog, zinc fingers 1-6, SBP tag (UNK, Homo sapiens, UniProt Q9C0B0, residues 30-357)
UniProt Q9C0B0, sequence (30-357, looked up): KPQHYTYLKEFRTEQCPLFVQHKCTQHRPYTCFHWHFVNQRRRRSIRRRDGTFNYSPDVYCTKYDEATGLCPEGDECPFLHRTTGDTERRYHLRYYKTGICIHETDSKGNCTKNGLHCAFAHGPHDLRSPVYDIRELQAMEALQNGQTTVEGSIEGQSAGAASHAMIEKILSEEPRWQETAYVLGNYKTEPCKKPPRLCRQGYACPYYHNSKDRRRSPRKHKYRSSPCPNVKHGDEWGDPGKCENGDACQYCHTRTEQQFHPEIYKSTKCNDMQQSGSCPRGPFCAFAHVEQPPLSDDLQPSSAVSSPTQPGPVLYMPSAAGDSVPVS
Notes: RNA with constant flanks, vertebrate orthologous sites, ends assumed
`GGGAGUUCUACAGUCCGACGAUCAGGGAGAAGAGCUCACAAAAUGAAAGGAAAACUAGUAAAGAGUUUCUAACAGUUAAAAGCUAAGAAAGAUUAGGACAAUUUUACAAAUGAGAAAAUAAAAAUCAAAUAAACAAAAAAGGACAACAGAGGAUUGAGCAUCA` has a bound/input enrichment of 1.15 ratio.
With `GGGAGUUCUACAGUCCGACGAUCUCUAUACGAUUUUAAAGACACUUCCUUACAAGGCACUUUGGCUCUUCAUAGAUCCCAUUGUAUUUACAGAUCUAUUUUUUUAAAAUAGCAGUAUGAACUCAAAGGGGACUUGGUUGGUGUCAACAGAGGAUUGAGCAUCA` the bound/input enrichment was 0.58 ratio.
`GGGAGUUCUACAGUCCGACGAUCCACGCGUACUGUGGCAUAUAGUCAACAUGGGAAGUAGACCAGCUCUGCUGAUUUGAAAUUUAGAUUUUUUUAAUUAUGUACUGGGGACAGGUUUUUGUCGCUUUACAUUGCUUCCUAGUUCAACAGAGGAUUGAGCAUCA` gave a bound/input enrichment of 3.44 ratio.
With `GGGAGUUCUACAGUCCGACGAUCUCCCCUGGGCCGGGACAGCCUUUUUUUUUUAAAUGUCUUGAAACCUAAACUCUGUGCUUGUAGAAGACUGUAACCUUUUUUGUCUUUUUUUUUUUUUUUUAAACCAACCUCCACCUCCAGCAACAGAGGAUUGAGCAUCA` the bound/input enrichment was 2.54 ratio.
The bound/input enrichment of `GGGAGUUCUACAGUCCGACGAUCUAUUCAGUCAUGGAGAAAAAGAUAUUAAAAUAAUUUUAUGGCACUGCUCUUUACUUUUGUUAGUUUUAUAAAAGUUAGGGUUCUUGUUUACAAACAACAGGAGCUGACUAUUGAGGAGAACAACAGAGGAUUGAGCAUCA` is reported as 0.467 ratio.
The bound/input enrichment of `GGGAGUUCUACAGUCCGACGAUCUAAGUAAAAUAUUGGAUGCAGUAUAUAGAUGAUCCAAGGCAGUGACUUCAGAUUUAGAUGUUAGUUUUAAGAUUAUUUACAUUUAUUUAAACUUUUAGAUUGGACUAUUUACUAUUGCUCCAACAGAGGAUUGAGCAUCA` is reported as 1.35 ratio.
For `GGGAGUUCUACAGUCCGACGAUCACGCUUUGAUAUUAAAUUUGACAUAAAAAGCAGCUGAUUGUAAGCACAACUCUUUCCUCCUAGCCAUUUAAAAAAGGUAAAAGACAAAAAAGAAAACCUACUAGUCUUGAACAAACUGUCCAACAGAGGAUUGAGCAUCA`, the bound/input enrichment was 0.683 ratio.
`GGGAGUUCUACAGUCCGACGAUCUGGGUUUGGGGUAGAAGGGUGGGAAGGGGCAGGAUAAGUGGAAUCUCUAGGGUGUAUGGGAAGUAGAGGGCAGUUAGUUCUAAGUGGGCUUUUAUGUUCCCUGUUGUGAGGGUGAGAACACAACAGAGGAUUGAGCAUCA` gave a bound/input enrichment of 1.05 ratio.
With `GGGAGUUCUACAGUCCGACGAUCAAGAUACUUUAUCCUUCAGGAGAAAUACCAAUGAGCUUUUUUUUGUUUUGUGCAUUUAAUAGAAUUAUUUUAUAUUAAUUGCUUAAUUGUAUGGAGAAACAUAGUUUUGCUCUCAAUAUGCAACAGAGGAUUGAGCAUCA` the bound/input enrichment was 0.24 ratio.
`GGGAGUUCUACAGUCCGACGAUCUAUUUUCUUAUUUUAGGUAUCAUUGCCCAGUGCCUAAGAUCUUUUAUGUUCAGCUCACUGUAGGAAAUAAUGAAUUUUUUGGAGAAGGAAAGACUCGACAAGCUGCUAGACACAAUGCUGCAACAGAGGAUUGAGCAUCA` has a bound/input enrichment of 1.34 ratio.
For `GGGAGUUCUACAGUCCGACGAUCAUCUCGUGCCUCACCCCACAGGAAGUGGGGGAAGCUGGAUGACCCUCACUGUUCCAAUUUAAUAUUUGUUGGUUUUCUUUUUUAAACAAAAAAAAAAUUCCUGUAUUUAUUAUGACGAUGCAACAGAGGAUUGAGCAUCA`, the bound/input enrichment was 0.161 ratio.

Single results of other studies
The fold induction of `PhoQ, residues 284 288 289 292 302 303 GLASVI` is reported as 2.56 (PhoP, residues 12 14 15 18 19 TPLRH (Escherichia coli, UniProt P23836); Sort-seq, measured: YFP reporter; E. coli; PhoQ-PhoP variant library, together with: 10 µM Mg2+; reference: high Mg2+ state, higher = stronger signaling).

For quick reference, copied from above (study 3):
Under “normalised enrichment score”, `P2H` is recorded as 0.437.
`T11M` — result for “normalised enrichment score”: 0.4.
Under “normalised enrichment score”, `D8N` is recorded as 0.523.
Under “normalised enrichment score”, `R5A L7A` is recorded as -0.176.
Under “normalised enrichment score”, `L7M` is recorded as 0.162.
For `P2R`, “normalised enrichment score” read 0.0818.
`T11K`: “normalised enrichment score” 0.21.
`E10W` — result for “normalised enrichment score”: 0.575.
